Measurements from different studies.
Numbered parts are unrelated; each lists some results of a single study.

Study 1
Target: Interferon regulatory factor 5, full length, phosphomimetic (IRF5, Homo sapiens, UniProt Q13568-2, residues 1-514, S451D/S453D/S456D/S462D)
Method: protein-binding microarray
Form: double-stranded DNA, one strand shown
Medium: in vitro
Tested at: 940 nM top
Setting: 60-bp whole probe
Together with: salmon DNA 0.4 mg/ml
Baseline: random background probes
Reading: higher = stronger binding
All sequences stand within: GCCTAGCAC … GTGCTAGGTCTTGATTCGCTTGACGCTGCTG
Strand	fitted relative affinity
TACGATTTCAGTATCGAGAC	2.52 z-score
TCACTTTTTGCACTCTCACT	1.87 z-score
TCACCTTTCAGTTTTCCACT	1.44 z-score
TCCCCTCTCATTCCAATTCT	1.76 z-score
GATGATATCAGTATCGAGAC	1.87 z-score

Study 2
Target: PABPC1L2, full length, GST fusion (mouse, UniProt A0ABA7IW68)
Method: RNAcompete
Form: RNA
Medium: in vitro
Tested at: 20 nM
Setting: 7-mer, probes averaged, single round
Baseline: mean of 7-mers
Reading: higher = stronger binding
Residues (chain): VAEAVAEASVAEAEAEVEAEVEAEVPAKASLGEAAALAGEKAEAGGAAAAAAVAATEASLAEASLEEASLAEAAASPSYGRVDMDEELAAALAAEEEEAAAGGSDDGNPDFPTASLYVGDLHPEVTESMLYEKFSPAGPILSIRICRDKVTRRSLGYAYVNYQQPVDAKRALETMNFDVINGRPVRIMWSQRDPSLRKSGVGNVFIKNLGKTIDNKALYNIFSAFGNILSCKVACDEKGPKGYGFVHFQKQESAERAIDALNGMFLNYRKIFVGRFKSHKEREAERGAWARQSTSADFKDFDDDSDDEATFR
Strand	7-mer Z-score
CCCGGAU	-0.133
UCCUUAU	-0.445
GGAGAAA	1.03
GAUCGCC	-0.385
UUCUUAU	-0.347
CUUGCAG	-0.238

Mixed results
G3BP1 RRM domain: Ras GTPase-activating protein-binding protein 1, RRM domain (G3BP1, Homo sapiens, UniProt Q13283)
UniProt Q13283, sequence (whole entry, looked up): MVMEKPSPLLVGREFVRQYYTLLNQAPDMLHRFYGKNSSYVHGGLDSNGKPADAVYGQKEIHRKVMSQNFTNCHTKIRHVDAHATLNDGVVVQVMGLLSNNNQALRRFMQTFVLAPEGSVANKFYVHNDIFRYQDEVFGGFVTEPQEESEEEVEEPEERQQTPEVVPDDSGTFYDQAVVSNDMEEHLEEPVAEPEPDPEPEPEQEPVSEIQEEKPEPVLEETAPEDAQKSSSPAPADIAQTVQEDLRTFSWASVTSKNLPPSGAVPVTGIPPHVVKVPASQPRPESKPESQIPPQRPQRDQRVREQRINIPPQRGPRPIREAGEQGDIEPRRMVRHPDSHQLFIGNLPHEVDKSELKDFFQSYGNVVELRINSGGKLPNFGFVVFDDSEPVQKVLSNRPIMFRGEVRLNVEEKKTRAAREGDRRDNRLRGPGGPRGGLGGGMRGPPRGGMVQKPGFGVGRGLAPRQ
G3BP1 full length: Ras GTPase-activating protein-binding protein 1, full length (G3BP1, Homo sapiens, UniProt Q13283)
Substance	target	assay	test system	setting	how to read	endpoint	result
GGGAGUUCUACAGUCCGACGAUCCCUCAAGUCCUGUGCUACACAUCGUAUGUACCGAAUCGGGAGGGAGGGAGGGGAAAGUAUUAUGUUACGCCGUUCGGAUCUGCACUUCCAUGGAAUUCUCGGGUGUCAAGG	G3BP1 RRM domain	RNA Bind-n-Seq	RNA, in vitro	1 µM, whole 134-nt RNA, ends assumed, together with: 150 mM KCl	baseline: input library, higher = stronger binding	log2 enrichment	1.26
PhoQ, residues 284 288 289 292 302 303 TGYLSA	PhoP, residues 12 14 15 18 19 NIMAP (Escherichia coli, UniProt P23836)	Sort-seq, item: YFP reporter	E. coli	PhoQ-PhoP variant library, together with: 10 µM Mg2+	baseline: high Mg2+ state, higher = stronger signaling	fold induction	0.951
GGGAGUUCUACAGUCCGACGAUCUCCUGUGCUACACAUCGUAUGUACCGAAUCGGGAAAAAAAGGGAAAAAAAGGGUUUGGGAAAGUAUUAUGUUACGCCGUUCGGAUCUGCAUGGAAUUCUCGGGUGUCAAGG (7-deaza-guanosine replaces G)	G3BP1 full length	RNA Bind-n-Seq	RNA, in vitro	200 nM, whole 134-nt RNA, ends assumed, together with: 150 mM LiCl	baseline: input library, higher = stronger binding	log2 enrichment	-1.72
GGGAGUUCUACAGUCCGACGAUCUCCUGUGCUACACAUCGUAUGUACCGAAUCGGGGAGGGGUUUUUGGGGAAAAAAAGGGGAAAGUAUUAUGUUACGCCGUUCGGAUCUGCAUGGAAUUCUCGGGUGUCAAGG	G3BP1 RRM domain	RNA Bind-n-Seq	RNA, in vitro	1 µM, whole 134-nt RNA, ends assumed, together with: 150 mM KCl	baseline: input library, higher = stronger binding	log2 enrichment	0.656
GGGAGUUCUACAGUCCGACGAUCCCUCAAGUCCUGUGCUACACAUCGUAUGUACCGAAUCGGAGGGAGGGAGGGGAAAGUAUUAUGUUACGCCGUUCGGAUCUGCACUUCCAGUGGAAUUCUCGGGUGUCAAGG (7-deaza-guanosine replaces G)	G3BP1 full length	RNA Bind-n-Seq	RNA, in vitro	200 nM, whole 134-nt RNA, ends assumed, together with: 150 mM LiCl	baseline: input library, higher = stronger binding	log2 enrichment	-0.35

A few entries again (study 2):
Strand	7-mer Z-score
UCCUUAU	-0.445
GGAGAAA	1.03
GAUCGCC	-0.385
